Experimental data gathered from unrelated publications.
Every numbered part comes from another study and shows a few of its results, in no order.

Study 1
Target: Ras GTPase-activating protein-binding protein 1, C-terminal RGG region (G3BP1, Homo sapiens, UniProt Q13283)
Sequence of UniProt Q13283 (whole entry, looked up): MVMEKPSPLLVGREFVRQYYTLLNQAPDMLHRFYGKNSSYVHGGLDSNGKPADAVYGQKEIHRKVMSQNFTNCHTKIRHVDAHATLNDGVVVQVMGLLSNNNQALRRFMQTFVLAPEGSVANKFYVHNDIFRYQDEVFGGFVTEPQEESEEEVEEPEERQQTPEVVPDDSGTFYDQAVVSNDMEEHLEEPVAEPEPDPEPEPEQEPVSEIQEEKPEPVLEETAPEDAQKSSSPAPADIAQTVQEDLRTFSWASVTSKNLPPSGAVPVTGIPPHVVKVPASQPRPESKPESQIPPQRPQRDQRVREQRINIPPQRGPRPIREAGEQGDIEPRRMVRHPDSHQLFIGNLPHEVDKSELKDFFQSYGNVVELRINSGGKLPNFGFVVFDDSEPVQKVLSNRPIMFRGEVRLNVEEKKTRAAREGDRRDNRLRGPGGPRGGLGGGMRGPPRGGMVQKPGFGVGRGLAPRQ
Technique: RNA Bind-n-Seq
Molecule type: RNA
Sample: in vitro
Concentration: 1 µM
Setting: whole 134-nt RNA, ends assumed
Together with: 150 mM KCl
Reference: input library
Direction: higher = stronger binding
Shared flanks, not repeated: GGGAGUUCUACAGUCCGACGAUC … UGGAAUUCUCGGGUGUCAAGG
| Sequence | log2 enrichment |
| --- | --- |
| AAGUCCUGUGCUACACAUCGUAUGUACCGAAUCAAACCCAAACCCCCAAAUUUAAAAAAGUAUUAUGUUACGCCGUUCGGAUCUGCACUU | -0.884 |
| AGUCCUGUGCUACACAUCGUAUGUACCGAAUCGGAAAAAGGGAAAAAGGAAAAAGGGAAAGUAUUAUGUUACGCCGUUCGGAUCUGCACU | -1.91 |
| AGUCCUGUGCUACACAUCGUAUGUACCGAAUCGGGAAAAAGGGAGGGAAAAAAAGGGAAAGUAUUAUGUUACGCCGUUCGGAUCUGCACU | 0.139 |
| UGGGAGGUGGAUUUCGUUUAUUUUUUUAGCUCAUUUCCAGGGGUGGGAAUUUUUUUUUAAUAUGUGUCAUGAAUAAAGUUGUUUUUGAAA | 2.81 |
| UGGCCCUGGUGGCAUGCGGGGAGGAAGAGGUGGCCUCAUGGAUCGUGGUGGUCCCGGUGGCAUGUUCAGAGGUGGCCGUGGUGGAGACAG | 2.47 |
| CAAGUCCUGUGCUACACAUCGUAUGUACCGAAUCGGCCCGGGGCCCGGCCCGGGGAAAGUAUUAUGUUACGCCGUUCGGAUCUGCACUUC | -1.73 |
| UCAAGUCCUGUGCUACACAUCGUAUGUACCGAAUCGGCCCGGCCCGGGGCCCGGAAAGUAUUAUGUUACGCCGUUCGGAUCUGCACUUCC | -1.4 |
| CUGUGCUACACAUCGUAUGUACCGAAUCGGGGUUUUUUUGGGUUUUUUUGGGUUUUUUUGGGAAAGUAUUAUGUUACGCCGUUCGGAUCU | -1.3 |
| AAGUCCUGUGCUACACAUCGUAUGUACCGAAUCGGCCCCGGGGCCCCGGGGCCCCGGAAAGUAUUAUGUUACGCCGUUCGGAUCUGCACU | -3.35 |
| ACCAUGCAGGUGGGCAUCUUUGGGAAGUGGGGCAAGGGGGGGAUAGGGAGGGGGGUAACACUUUGGGAACAGGUGGUCCCAGGUCGUUUC | -1.18 |
| UUCCUCAAGUCCUGUGCUACACAUCGUAUGUACCGAAUCGGUGGUGGUGGGAAAGUAUUAUGUUACGCCGUUCGGAUCUGCACUUCCAGC | -0.412 |
| ACCAUAAAGGUGGGCAUCUUUGGGAAGUGGGGCAAGGGGGGGAUAGGGAGGGGGGUAACACUUUGGGAACAGGUGGUCCCAGGUCGUUUC | -0.942 |
| AAGUCCUGUGCUACACAUCGUAUGUACCGAAUCGGUUUUUUUGGAGGUUUUUUUGGAAAGUAUUAUGUUACGCCGUUCGGAUCUGCACUU | -1.99 |
| UUGUUUGAAACAGCAACGCUUCGGUCAGGGUAUCUUUUACCAGACACUAAAGCAUAUGGAGAUAGAAUAGAAAGAAUGCUUCGCCUCAGU | -1.88 |

Study 2
Target: Histone acetyltransferase KAT6A, both winged helices, GST fusion (KAT6A, Homo sapiens, UniProt Q92794, residues 1-181)
Technique: protein binding microarray
Molecule type: double-stranded DNA, one strand shown
Sample: in vitro
Concentration: not given
Setting: 8-mer, flanks averaged, mean of 2 arrays, mostly near background
Reference: not given
Direction: higher = stronger binding
Residues (chain): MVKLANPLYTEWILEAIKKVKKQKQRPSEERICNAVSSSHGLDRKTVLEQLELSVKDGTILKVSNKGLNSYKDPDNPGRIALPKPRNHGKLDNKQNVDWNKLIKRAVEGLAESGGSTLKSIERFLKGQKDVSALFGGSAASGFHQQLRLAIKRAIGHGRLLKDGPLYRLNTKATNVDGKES
| Sequence | E-score |
| --- | --- |
| ATGTCCAC | -0.106 |
| CCCCGTCA | 0.126 |
| CACCCGAC | 0.122 |
| CGAGTAAC | 0.0258 |
| ATAATTCC | -0.0802 |
| CTTATAGA | -0.0275 |
| AAATACTA | -0.11 |
| ATTTGATG | -0.16 |
| GCAAACGA | -0.0713 |
| TGACTCAA | -0.0646 |
| AGACTTAA | -0.0655 |
| CAGTGGAC | -0.153 |
| ATAATGGG | -0.101 |
| CCCTTCTA | -0.12 |
| GGTTGCAC | -0.023 |
| CAAAAGCC | 0.02 |
| CGGCAGAA | 0.175 |
| GACCTTCC | 0.0404 |
| GTCCACAC | 0.049 |
| ACAGCACG | 0.0889 |
| AATGCCAG | -0.0755 |
| ATGACCAA | -0.0484 |
| TCGACGCA | 0.13 |
| AGAGGCTG | -0.305 |
| GCGTAAGC | 0.204 |

Study 3
Target: PABPC1L2, full length, GST fusion (mouse, UniProt A0ABA7IW68)
Technique: RNAcompete
Molecule type: RNA
Sample: in vitro
Concentration: 20 nM
Setting: 7-mer, probes averaged, single round
Reference: mean of 7-mers
Direction: higher = stronger binding
Construct (chain): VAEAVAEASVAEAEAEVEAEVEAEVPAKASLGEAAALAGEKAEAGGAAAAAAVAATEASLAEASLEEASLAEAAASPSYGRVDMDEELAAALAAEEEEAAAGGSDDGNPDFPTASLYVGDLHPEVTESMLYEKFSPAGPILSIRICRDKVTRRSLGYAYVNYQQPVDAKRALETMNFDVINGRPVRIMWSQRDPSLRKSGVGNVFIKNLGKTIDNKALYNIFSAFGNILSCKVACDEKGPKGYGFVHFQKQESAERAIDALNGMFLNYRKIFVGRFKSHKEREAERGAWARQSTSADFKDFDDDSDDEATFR
| Sequence | 7-mer Z-score |
| --- | --- |
| ACCAGAA | 0.309 |
| CAUCACG | -0.269 |
| UCGAAAU | -0.112 |
| CGGUCUG | -0.267 |
| CCGCCUG | -0.461 |
| CAAGAGU | -0.104 |
| CCCAUCC | -0.389 |
| CUGGGAA | 0.131 |
| UAAUCUC | -0.233 |
| CAAGCAA | 0.0859 |
| GCUGGCU | -0.128 |
| CAUCGCG | -0.104 |
| CGACCCC | -0.248 |
| UGCGGGU | 0.0569 |
| UAUCCUU | -0.206 |
| CCCCCCU | -0.628 |
| GGGAAAC | 0.196 |
| UACACUU | -0.171 |
| CGUGCUA | -0.0718 |
| AUUGUCU | -0.284 |
| AUUUGGU | -0.184 |
| UUAACGC | -0.121 |
| CAAUGGG | 0.0859 |
| CCUUAUA | -0.342 |
| CCUCCCU | -0.503 |

Study 4
Target: Centromere-binding protein 1, full length, His-tagged (CBF1, Saccharomyces cerevisiae, UniProt P17106, residues 1-351)
Sequence of UniProt P17106 (whole entry, looked up): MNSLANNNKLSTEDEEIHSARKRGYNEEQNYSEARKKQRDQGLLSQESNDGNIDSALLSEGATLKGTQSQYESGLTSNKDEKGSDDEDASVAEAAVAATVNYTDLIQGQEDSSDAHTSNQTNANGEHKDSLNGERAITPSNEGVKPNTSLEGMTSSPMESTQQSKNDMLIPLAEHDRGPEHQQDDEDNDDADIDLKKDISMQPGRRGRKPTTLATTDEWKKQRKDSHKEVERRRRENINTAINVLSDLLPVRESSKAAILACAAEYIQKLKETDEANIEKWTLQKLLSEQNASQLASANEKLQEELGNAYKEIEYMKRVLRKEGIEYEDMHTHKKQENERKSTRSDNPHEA
Technique: competition protein-binding microarray
Molecule type: double-stranded DNA, one strand shown
Sample: in vitro
Concentration: 2 µM
Setting: whole 60-bp probe, lowest competitor level
Together with: Pho4 competitor, 0.05 µM
Direction: higher = stronger binding
Shared flanks, not repeated: … GTCTTGATTCGCTTGACGCTGCTG
| Sequence | fluorescence intensity [a.u.] |
| --- | --- |
| AAAGCGGTAATTTGGAGGGTGGGTGCAGATATCTAT | 79.4 |
| TTGTAAGATTCTACTCCCGTGAAGATCCCAATCGCT | 64.2 |
| TTTTTCGATTTTGTTTTTGTGTCGCAAAATAACTAA | 93.2 |
| GGATCTTCTCTTCTTCACCGGCGAGATGGGCTGCGG | 71.3 |
| CGTAATTGACATGAACACATGCATTATATTTTTTGT | 273 |
| CTAACGAAGGTTTGTGGCGTGGGTGACAAGCCAAGT | 67 |
| ACTGTAGAAAGAGAAAGTGTGGTAAAACCAACCAAT | 74.8 |
| CAAGTTCCGGGGCGTCACATGGAAACAATGGCACTT | 372 |
| AAACAAACTACATCGCACGTGACGGATAACTATACG | 5680 |
| AAATTACTAAGTTGCATAGTGGGTGACGCCGTATGA | 69.7 |
| GTTGAGGTGAACCAGCTCGTGGAGTAGACCGTTGAG | 55.2 |
| AAAGCGGTAATTTGTCACTTTACTTCACATATCTAT | 86.9 |
| AACATATTGTGTTGACATGTGTAGGCAAAGACAAAA | 105 |
| AAAGCGGTAATTTGCGCCGTGGGTGCAGATATCTAT | 67.5 |
| AAAGCGGTAATTTGACTAGTGGGTGCAGATATCTAT | 75 |
| GAACTGCTTCGAAAACACGTGTTCCCCTCCGTTCCA | 1910 |
| GTCTTGTCTCATTGTCACGTCACTTTCCCCACTTCA | 176 |
| TCAACAATATTGTCCCACGCAGCTATCCTGTCTGTG | 76.8 |
| CAATTCGGCAAGAGGTGTTCTGCGCATCTGAATTAT | 79.6 |
| CTTCTGTAAATTTGGTACGTGGGTGGACGCGCCCCG | 94.8 |
| GCACTTTCACTACTAGACGTGCTTTTAAAAAATTGT | 91.8 |
| CTTCTGTAAATTTGGGCAGTGGGTGGACGCGCCCCG | 90.7 |
| AGAAGGATGAATTGGAACGTGTTGGCAAGTCTAACC | 87 |
| CCATATTGGATTACCCACGTCGCCGCGACAGGCCTT | 66.2 |
| CGTCCTAGTGATTTTCACGTGCTATCCATGAGGAAG | 1380 |

Study 5
Target: RING finger protein unkempt homolog, zinc fingers 1-6, GST-SBP tag (UNK, Homo sapiens, UniProt Q9C0B0, residues 30-357)
Sequence of UniProt Q9C0B0 (30-357, looked up): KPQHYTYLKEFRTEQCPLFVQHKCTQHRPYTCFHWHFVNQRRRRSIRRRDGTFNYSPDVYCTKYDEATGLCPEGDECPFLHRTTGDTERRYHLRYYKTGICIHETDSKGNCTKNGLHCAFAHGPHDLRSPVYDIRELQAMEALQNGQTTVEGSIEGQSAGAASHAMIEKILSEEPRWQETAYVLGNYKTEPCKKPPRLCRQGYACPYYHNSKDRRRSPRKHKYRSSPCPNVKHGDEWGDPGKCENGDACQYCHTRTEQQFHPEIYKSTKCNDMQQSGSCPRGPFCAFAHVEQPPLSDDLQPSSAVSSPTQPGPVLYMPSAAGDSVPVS
Technique: RNA Bind-n-Seq
Molecule type: RNA
Sample: in vitro
Concentration: not given
Setting: RNA with constant flanks, ends assumed
Reference: input RNA pool
Direction: higher = stronger binding
Shared flanks, not repeated: GGGAGUUCUACAGUCCGACGAUC … CAACAGAGGAUUGAGCAUCA
| Sequence | bound/input enrichment |
| --- | --- |
| GCUGGAAACGGGCGGCGGCUCCACUUAGGGAUUCCUGAAGCAGUGUUUGUGGAAGAUGCCGAUUCUUUCAUGAAGCAGCCUGGGAAUGAGACUGCAGAUACAGUGUUAAAGAAGCUGGAU | 0.184 ratio |
| UGUCCACAAGUGGCCGACAUGGAACAUGCUGAGCAGUGGCUCCUCUGAAUGUUCACUUUAUCCGUCAUGUAUAUUUUAAAUGCUAACAUUUGAUGAAUGUAAGUUUCCACAUUGUUGCUG | 0.102 ratio |
| AAUGAACACUUCAAUGUGUUCCUCACUGCUAAGGACCUGAAUGCCUACAAGAAGCAAGGGACCGCAUUGCUGAGCAGAGUGGGUGAGUCAGUCAAGCACGUCACCGGAGGCUAUAAGCUG | 0.109 ratio |
| GGGCAGUUUGCGUUCCAUGUUGGUCUUCCUGCAAAAUCUGGAGUUGCUGGGGGUAUUCUUUCCGUUGUCCCCAACGUCAUGGGCAUGAUGUGUUGGUCUCCUCCUCUUGACAAGAUGGGC | 0.304 ratio |
| GAGAAUUUAAAUUGAUUCUCAGUUCUGUCAUCAUUAGUUUCUUUUACAUUAAUAUGUCCACCGUUUGCAUGUUCCCUGGACAGCUUUGUCUUAAUUUCCAUGAGUAGAACUGUGACUUCU | 32.8 ratio |
| CCGGAGCAAAUUUUUCAGAACAUAAAACAAGAAUAUAGUCGUUAUCAGAGGUGGAGACAUUCCGAAGUUGUUCUUAAUCAGAGUGAAGCUUGUGCUUCGGAAAGUCAACCUCACUCCUCA | 1.17 ratio |
| GUAGAAUCUUGUUUGUAGGCUGAAUUUUAAUCUGUAUUUAUUGUCUUUUGUAUCUCAGAAAUCCGAAACUUGCUACAGACUUACCCGUAAUAUUUGUCAAGAUCAUAGCUGACUUUAAAA | 1.41 ratio |
| UCAAUAACCUUUUCAGAUGAAAAUGAUGAUCAGGAUUUUGAAUUAUGGGAUGAUGCCGGAUUAAACAUUCCCAAACCCCCAGACUUGUUACAACUUUACCGAGACUUUGGAAAUCAUCAA | 0.139 ratio |
| GGUGUCUUCUCAAACGGAGUAAGCGCCUGGAUCCAAAUGGUAGACUACUUGACCCCGUUCUCCCGCGUGAGUUUUCAUAGUGCCAUCUCCUCAUGAUUGUAGAAGCAGCUGAAUGAGUUU | 0.145 ratio |
| GAGCCAGAGGAAGAAGAAGAGGAGAAGGAAGGGAAUGCCACUGUGAGUUUCUCACAGGCCCCCGCCGAGUUCACCAGCAAUGGAAACCUUUUUACCAGCAUGUCCUACAGCUCUGAUUCU | 0.116 ratio |
| CGAAUCCACUGCAGUAAAUCUUCAGUCCGCAGCAGGAGAAGCAGUCCUAAAAGGAAGCGCAACCGACACUGUUCAAGUCAUCAGUCACGUUCGAAGAGCCACCGAAGGAAAAGAUCCAGG | 0.102 ratio |

Some of these lines once more (study 3):
| Sequence | 7-mer Z-score |
| --- | --- |
| UAAUCUC | -0.233 |
| CAAUGGG | 0.0859 |
| CCCAUCC | -0.389 |
| CCGCCUG | -0.461 |
| CCUCCCU | -0.503 |
| ACCAGAA | 0.309 |
